Measured values collected from several papers.
Each numbered part is a random draw from the data of one study; scales do not carry over between parts.

Block 1 — technique: RNA Bind-n-Seq; molecule type: RNA; medium: in vitro; concentration: not given; relative to: input RNA pool; direction: higher = stronger binding
Target: RING finger protein unkempt homolog, zinc fingers 1-6, GST-SBP tag (UNK, Homo sapiens, UniProt Q9C0B0, residues 30-357)
Notes: RNA with constant flanks, human and mouse sites, ends assumed
All sequences stand within: GGGAGUUCUACAGUCCGACGAUC … CAACAGAGGAUUGAGCAUCA
Construct (chain): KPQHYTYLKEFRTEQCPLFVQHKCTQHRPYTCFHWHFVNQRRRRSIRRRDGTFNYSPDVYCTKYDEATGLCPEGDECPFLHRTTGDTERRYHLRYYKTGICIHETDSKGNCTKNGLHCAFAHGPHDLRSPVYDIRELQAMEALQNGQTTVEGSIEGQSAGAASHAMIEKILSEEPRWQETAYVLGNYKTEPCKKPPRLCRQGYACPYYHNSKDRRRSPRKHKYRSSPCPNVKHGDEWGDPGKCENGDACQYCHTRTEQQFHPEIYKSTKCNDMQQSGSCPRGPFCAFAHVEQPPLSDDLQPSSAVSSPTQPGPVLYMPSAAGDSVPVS
Oligonucleotide | bound/input enrichment [ratio]
GAGAAGCUCAAGACCAUCAGCCUGGUGAUCCGCGGCACGCAGGGGGCCGAGGAGGUGCUCAGGGCCCACGAGGAGCAGCUCAAGGAGGCCCAGGCCGUGCCGGCCACCCUCCCGGAGCUC | 0.146
AGACGACGAGAAUAUCAAUUAUCUGACUCUACCAAAUACUAUCUUAAUGACUUGGACCGCGUAGCUGACCCUGCCUACCUGCCUACGCAACAAGAUGUGCUUAGAGUUCGAGUCCCCACC | 0.326
GGCCAACCAAACCCUUUGAAAAAUAUUCUAAAUGAAAAUGACAUAGUAUUCAUAGUGGAAAAAGUGCCUUUAGAAAAGGAAGAAACAAGUCAUAUUGAAGAACUUCAAUCUGAAGAAACU | 0.309
CCCACACCAAGGGGCCAUGUGCAGCAAGAGCCAAGCAGGCAGCUGUCCAUACUCACUGCCUAGGUGACCCCAGCCCCAGGGCCCAGCCCCAGCCAUUCUGGCUUCAUGCCAGAGGCAGUU | 0.101
GCUUGCCAGAAGAUGAUCUUAGAGUUGUUUUCUAAGGUGCCAUCCUUGGUAGGAAGCUUUAUUAGAAGCCAAAAUAAAGAAGACUAUGCUGGCCUAAAAGAAGAAUUUCGUAAAGAAUUU | 0.417
CUGAGGUUGUGGGGUGAUCAUGGGCAAGAGGCUUUAGAAUCUGCUCAUGUUUGCCUAAUAAAUGCAACAGCCACAGGAACUGAAAUUCUUAAAAACUUGGUACUACCAGGUAUUGGUUCG | 0.138
CAGAAGGAGCACGCAGCUAUCAUUCUUUGGAGCACGGCAUCUUGGAAACAAGUGCAGAGUCUUGCUUUCCACACUCUGACUGUCACACAGAUGACAUUCUCACCUGAUGACAAGUUCUUA | 0.0814
CAAAAGAUCCUGGCUAACUGUUCUUCUCCCUACCAUGUAGAUCUGUUGGGUAUAGCAGACCUAGCGCACUUACUCCUGUUCAAGGAGCACCUCCAUGUCUUCUGGGAUGGACUCCUCUGG | 0.104
AAGCUAUCAUUGAAGAAGAUGAUGGUGAUGGGGGAUGGGUAGAUACAUAUCACAACACAGGUAUUACAGGAAUUACUGAAGCAGUUAAGGAGAUUACACUGGAAAGCAAGGACAGUAUAA | 0.114
CGAGAAGCUGUUUGCAUCGUCCUUUCUGAUGAUACUUGUUCUGAUGAGAAGAUUCGGAUGAAUAGAGUUGUUCGGAAUAACCUUCGUGUACGCCUAGGGGAUGUCAUCAGCAUCCAGCCA | 0.141
CUGGAAGAAACUGAAGCACUGGCCCCGGACCCUUCAGCCCAAGAGGAGCAGGGUAGGACUUCUGAUGGCUUAGGGAAGCCACCUGAACAGUUUCUAGAGAAGGAAGCUGUCAGCUCACUC | 0.0868

Block 2 — technique: RNA Bind-n-Seq; molecule type: RNA; medium: in vitro; concentration: 365 nM; relative to: no-protein control; direction: higher = stronger binding
Target: RNA binding protein fox-1 homolog 2, RRM domain, GST-SBP tag (RBFOX2, Homo sapiens, UniProt O43251-10, residues 100-194)
Notes: natural RNA segment, single round, ends assumed
All sequences stand within: GGGAGUUCUACAGUCCGACGAUC … UGGAAUUCUCGGGUGCCAA
Construct (chain): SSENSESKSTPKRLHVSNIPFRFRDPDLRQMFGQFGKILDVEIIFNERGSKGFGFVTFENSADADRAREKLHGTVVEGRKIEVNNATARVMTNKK
Oligonucleotide | RBNS enrichment (R)
CUCAUCCCUUGCCAAGCUUCUCUUAGGAUUGGUUUGCAGGGUAUAGAAUCCCAUCACGCGUGGGAAAAUAAAUGAAUACACUAAGAAAAGGGUGGCAUUUGAUUAAGUGA | 0.512
UGAGAAGGUAAAGAAGAGGCAUGUCCAGUAUGCUUUGCAGGGUGUGUUUGCUCUUUUCCAUGCCCAUGCAACCCAGAUUGGGGUGGAGCAGGAAGGAGCUCUUUUCUGUU | 0.511
AAAUGCUAUUGGCAGGGAAUAAUAAUAAAAAAAAAAGAAAAUCAUUCUGUUUCCUGCAGUGGGAACUGGCCAUGUAGUCUUAACAGUCUUUUGUACAAAUAUCUACAAAG | 0.516
AAUGAAAUUAGUGCCUGUUUUCUUGCAAAUUUAGCACUUGGAACAUUUAAAGAAAGGUCUAUGCUGUCAUAUGGGGUUUAUUGGGAACUAUCCUCCUGGCCCCACCCUGC | 0.325
GUUUUAGGUAACCCCUGUGAGAGGGUCGUUCCAUACUCCACCCCCCAGGGGUCACAACCUACAGGUUGAGAACUACUAUUCUAAAGGCUCAGCACUCUGCAGAGCACAGG | 0.262
CAGAUUAUCCCUGGGUUUGGGCUGCAGUCACCUGGAGAAGCUGGUAGGGUAAGGGAGAGGGACCCUGCCGGUGUUCACUGGGGAUUCUUUCUUUUGGUCCUUCCUGGAAU | 0.403
AUCUGUACAGAUCUAACACUACGACACUCAGUAUUCAUUUUAUUGAAGCAUGCAAGUAAAGCACUUUUUCUAAUUUAUAUAGAGGUAUCUAAUUAACACAGCACAUUGUA | 5.08
UGGGUGUUUGCAUCAUAAUGUCAUCUUGGGAAACAGAAAAGAAGGUGGGCCAACCCUCAUGUCCCCCACUCCCUUGCAUUAUUUCUUUGUGUCUUGUUCAGGAGAAAAGA | 4.97
AUCUCAUCAUCUCACGAAUCUGCUGUAAUAUAAGACAACAGCUUUUAAAUGUGUAUAUAACCCAUGAUUUCGGUUUUGUUUUGUUUUGUUUUUCUUGAUGGUUUCCCUCU | 0.648

Block 3 — technique: protein-binding microarray; molecule type: double-stranded DNA, one strand shown; medium: in vitro; concentration: 250 nM; notes: 60-bp whole probe; added: salmon DNA 0.4 mg/ml; relative to: random background probes; direction: higher = stronger binding; all sequences stand within: GCCTAGCAC … GTCTTGATTCGCTTGACGCTGCTG
Target: Interferon regulatory factor 7, full length, phosphomimetic (IRF7, Homo sapiens, UniProt Q92985, residues 1-503, S101K/S471D/S472D/S475D/S476D/S477D/S483D/S484D/S487D)
Construct (chain): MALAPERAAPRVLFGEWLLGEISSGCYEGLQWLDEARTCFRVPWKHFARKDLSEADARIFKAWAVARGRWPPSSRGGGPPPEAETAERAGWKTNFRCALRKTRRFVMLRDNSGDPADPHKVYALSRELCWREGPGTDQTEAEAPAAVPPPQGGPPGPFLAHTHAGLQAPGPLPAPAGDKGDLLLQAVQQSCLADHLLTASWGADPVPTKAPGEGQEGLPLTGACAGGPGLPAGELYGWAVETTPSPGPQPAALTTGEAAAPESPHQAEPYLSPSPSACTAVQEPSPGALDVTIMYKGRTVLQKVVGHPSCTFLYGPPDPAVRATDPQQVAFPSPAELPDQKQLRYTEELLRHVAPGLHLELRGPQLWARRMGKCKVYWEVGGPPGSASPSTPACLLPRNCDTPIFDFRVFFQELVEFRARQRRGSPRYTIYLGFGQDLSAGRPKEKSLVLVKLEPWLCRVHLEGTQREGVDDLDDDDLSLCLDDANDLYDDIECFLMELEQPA
Oligonucleotide | log fluorescence [z-score]
TTAGGTATCCTTATCCTTGAGTGCTAG | 0.358
AGGAATTTCCCACTTTCAGTGTGCTAG | 2.25
TTAGAACTGGGGACTGCATTAGTGCTA | -0.371
TTAGAACTGAGCTTCGATTAGTGCTAG | -0.0919
TTTATTTTCAGTATTACCTCGTGCTAG | 1.04
GACGGTTTCGACCATCGGGACGTGCTA | 2.35
TCAAGTTTATTTATTTTACTGTGCTAG | 0.12
TTAGGTTTCCTTTTACTTTAGTGCTAG | 8.21
TTCAGTTTCTCTTTCCTTCTGTGCTAG | 6.19
GACGATTTCGGTTATCGAGACGTGCTA | 1.59
TTAGGAATGGGACTGGGTTAGTGCTAG | 0.00137
TTGCTTGTGTTTATTGTGACGTGCTAG | -0.449
CACTATTTAAGGCCTATGCACGTGCTA | 0.584
TTAGGTTTTGGGTTTCGGTTAGTGCTA | 7.24
TTAGGTTTCGGTTCCGGTCAGTGCTAG | 12.1
GACGATCTGAGTCTCGAGACGTGCTAG | -0.124
TTAGGACTTCTTATCCTTTAGTGCTAG | -0.0388
GACGGACTCGACACTGGGGACGTGCTA | -0.219
GACGGGCTGGGGTATCGGGACGTGCTA | -0.76
GACGGCTTCCTTTTCCTGACGTGCTAG | -0.0286
TCATACATGGGTATAGAACTGTGCTAG | -0.156
TCAAGCCTCTGTTTTGAACTGTGCTAG | -0.0726
CCCTGTTTCTACTGTCTGTTTGTGCTA | 1.63
GACTGACTGGGGTTTCGGGACGTGCTA | 1.12
TGCTCCTTATGGCTAAAGGGGTGCTAG | 0.0571

Block 4 — technique: RNA Bind-n-Seq; molecule type: RNA; medium: in vitro; concentration: 200 nM; notes: whole 134-nt RNA, ends assumed; added: 150 mM LiCl; relative to: input library; direction: higher = stronger binding; library: 7-deaza-guanosine replaces G
Target: Ras GTPase-activating protein-binding protein 1, full length (G3BP1, Homo sapiens, UniProt Q13283)
UniProt Q13283, sequence (whole entry, looked up): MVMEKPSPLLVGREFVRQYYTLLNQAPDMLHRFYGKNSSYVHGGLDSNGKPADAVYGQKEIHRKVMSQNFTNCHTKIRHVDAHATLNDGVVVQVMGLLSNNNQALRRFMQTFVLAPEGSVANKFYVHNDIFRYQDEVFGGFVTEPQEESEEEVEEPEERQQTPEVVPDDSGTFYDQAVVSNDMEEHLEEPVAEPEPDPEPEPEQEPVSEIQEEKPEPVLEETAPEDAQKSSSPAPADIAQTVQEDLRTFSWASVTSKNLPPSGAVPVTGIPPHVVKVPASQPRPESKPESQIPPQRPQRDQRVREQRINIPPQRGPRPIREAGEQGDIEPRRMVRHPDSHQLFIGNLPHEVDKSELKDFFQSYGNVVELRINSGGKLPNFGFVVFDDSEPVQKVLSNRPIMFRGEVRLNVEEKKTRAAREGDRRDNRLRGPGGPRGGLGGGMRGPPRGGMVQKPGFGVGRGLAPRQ
All sequences stand within: GGGAGUUCUACAGUCCGACGAUC … UGGAAUUCUCGGGUGUCAAGG
Oligonucleotide | log2 enrichment
ACAAGUGGAGGAGAAGAACUUAGAAGAACUAGAGGAGAAAUCUACUACUCCUCCUCCGGCAGAACCUGUUUCUCUGCCACAAGAACCACC | 1.17
GUCCUGUGCUACACAUCGUAUGUACCGAAUCAAACCCCCCCAAAUUUUUAAACCCAAAAAAGUAUUAUGUUACGCCGUUCGGAUCUGCAC | 1.18
CAAGUCCUGUGCUACACAUCGUAUGUACCGAAUCGGCCCGGGCCCGGGCCCGGGGAAAGUAUUAUGUUACGCCGUUCGGAUCUGCACUUC | -1.38
AAGUCCUGUGCUACACAUCGUAUGUACCGAAUCGGGUGGGUUUGGGAAAAAAAGGGAAAGUAUUAUGUUACGCCGUUCGGAUCUGCACUU | -0.468
UUCUGGUCUGCUCACCAGAGGUUCUUCAAAUACUUAUGCAUAGCAUCCAAAGUUAAAAGGGUUGUGCAACUAGCUCGAGAGGAAAUCAAG | -0.512
CCUGUGCUACACAUCGUAUGUACCGAAUCGGGGUUUUUGGGGAAAGGGGAAAAAAAGGGGAAAGUAUUAUGUUACGCCGUUCGGAUCUGC | 0.584
CCUGUGCUACACAUCGUAUGUACCGAAUCGGGGUUUUUUGGUUUUUUGGGUUUUUUGGGGAAAGUAUUAUGUUACGCCGUUCGGAUCUGC | -0.903
AGUCCUGUGCUACACAUCGUAUGUACCGAAUCGGGGUGGGGUUUUUGGGGUUUGGGGAAAGUAUUAUGUUACGCCGUUCGGAUCUGCACU | -0.145
CACAGACAACACGCACCCACACAGACACAGAGGGAAGGGGUUGGGAUGGGGACAGGGUGCACAGCAGGGCGGGGUAGGACCCCAGACCCU | -1.64
UUUCUCCAAGGACAUCAAGGUGCCCAAGAGCCGCUACCUGGGCUACAUCAAGGACUACGAGGGAGCGACGCUGAUGGAGUGUGAGCUGAA | -1.5
UCCUGUGCUACACAUCGUAUGUACCGAAUCGGAAAAAAGGGAAAAAAGGGAAAAAAGGGAAAGUAUUAUGUUACGCCGUUCGGAUCUGCA | -0.262

For quick reference, copied from above (block 1):
Oligonucleotide | bound/input enrichment [ratio]
GAGAAGCUCAAGACCAUCAGCCUGGUGAUCCGCGGCACGCAGGGGGCCGAGGAGGUGCUCAGGGCCCACGAGGAGCAGCUCAAGGAGGCCCAGGCCGUGCCGGCCACCCUCCCGGAGCUC | 0.146
AGACGACGAGAAUAUCAAUUAUCUGACUCUACCAAAUACUAUCUUAAUGACUUGGACCGCGUAGCUGACCCUGCCUACCUGCCUACGCAACAAGAUGUGCUUAGAGUUCGAGUCCCCACC | 0.326
GGCCAACCAAACCCUUUGAAAAAUAUUCUAAAUGAAAAUGACAUAGUAUUCAUAGUGGAAAAAGUGCCUUUAGAAAAGGAAGAAACAAGUCAUAUUGAAGAACUUCAAUCUGAAGAAACU | 0.309
CCCACACCAAGGGGCCAUGUGCAGCAAGAGCCAAGCAGGCAGCUGUCCAUACUCACUGCCUAGGUGACCCCAGCCCCAGGGCCCAGCCCCAGCCAUUCUGGCUUCAUGCCAGAGGCAGUU | 0.101
GCUUGCCAGAAGAUGAUCUUAGAGUUGUUUUCUAAGGUGCCAUCCUUGGUAGGAAGCUUUAUUAGAAGCCAAAAUAAAGAAGACUAUGCUGGCCUAAAAGAAGAAUUUCGUAAAGAAUUU | 0.417
CUGAGGUUGUGGGGUGAUCAUGGGCAAGAGGCUUUAGAAUCUGCUCAUGUUUGCCUAAUAAAUGCAACAGCCACAGGAACUGAAAUUCUUAAAAACUUGGUACUACCAGGUAUUGGUUCG | 0.138
CAGAAGGAGCACGCAGCUAUCAUUCUUUGGAGCACGGCAUCUUGGAAACAAGUGCAGAGUCUUGCUUUCCACACUCUGACUGUCACACAGAUGACAUUCUCACCUGAUGACAAGUUCUUA | 0.0814
